Assay results gathered from unrelated publications.
Lines come from different studies, so protocols differ. ± marks the error that the study gave.

O=S(=O)(Nc1ccccc1)c1ccc(NC(=S)Nc2ccccc2)cc1 — serum enzyme activity (measured: ALT; female mouse, blood; oral, 20 mg/kg daily, 14 days): 67 U/L
COc1ccc(-c2c(-c3ccc(C#N)c(F)c3)nc(N3CCC(N)CC3)n(C)c2=O)cc1F — serious adverse event incidence (measured: Colitis; human patients; oral, dose not given, dose escalation, NG): 2%
Nc1ncnc2c1ncn2[C@@H]1O[C@@H]2COP(=O)([S-])O[C@@H]3[C@H](O)[C@@H](COP([O-])(=S)O[C@H]2[C@H]1O)O[C@H]3n1cnc2c(N)ncnc21.[Na+].[Na+] (stereo partly shown) — haemoglobin (non-tumor-bearing mice, blood; intravenous, 1 mg/kg, toxicity study): 145 ± 9.39 g/L
CN1CC[C@@H](c2c(O)cc(O)c3c(=O)cc(-c4ccc(C(F)(F)F)cc4Cl)oc23)[C@@H]1CO — patients with adverse event (measured: Constipation; B-cell malignancies or AML; oral, 50 mg, continuous dosing): 12.5%
Cn1c(-c2ccc(C(N)=O)cc2F)nnc1C(C)(C)Oc1c(F)cc(Cl)cc1F — nervous system disorder TEAE (human; oral, 30 mg, single ascending dose): 16.7%
CCc1ccc(CC/C=C/c2ccc3c(c2)C(=O)CC3)cc1 — Lymphocyte percentage (Sprague-Dawley rat, male; oral, 30 mg/kg/day, 14 days): 85.1%
COc1cc2c(Oc3ccc4[nH]c(C)cc4c3F)ccnc2cc1OCC1(N)CC1 — grade 3 Thrombocytopenia (paediatric recurrent refractory sarcoma; 8 mg): 0%
CC(C)(C)c1cc(-n2nc3ccccc3n2)c(O)c(C(C)(C)C)c1 — mean daily dermal uptake (exposure assessment; human, age 21-60 years; foundation): 1.14 ng/kg body weight/day
C[C@]1(CO)Cc2ncn(-c3ccc(C#N)c(Cl)c3)c2C(=O)O1 — subjects with drug-related dizziness (human; 80 mg multiple doses, fasted): 11.1%
CC(C)[C@@H]1CC[C@@H](C)C[C@@H]1O — triglycerides (acute oral toxicity OECD; Swiss albino mice, serum; oral, 1000 mg/kg): 101 ± 5.06 mg/dL
CC[C@H](C)[C@H](NC(=O)[C@H](Cc1ccccc1)NC(=O)[C@H](CCC(=O)O)NC(=O)[C@H](CCCNC(=N)N)NC(=O)[C@H](C)NC(=O)[C@H](C)NC(=O)[C@H](CCC(N)=O)NC(=O)[C@H](CCC(=O)O)NC(=O)[C@H](CCC(=O)O)NC(=O)[C@H](CC(C)C)NC(=O)[C@H](Cc1ccc(O)cc1)NC(=O)[C@H](CO)NC(=O)[C@H](CO)NC(=O)[C@@H](NC(=O)[C@H](CC(=O)O)NC(=O)[C@H](CO)NC(=O)[C@@H](NC(=O)[C@H](Cc1ccccc1)NC(=O)[C@@H](NC(=O)CNC(=O)[C@H](CCC(=O)O)NC(=O)[C@H](C)NC(=O)CCc1cnc[nH]1)[C@@H](C)O)[C@@H](C)O)C(C)C)C(=O)N[C@@H](C)C(=O)N[C@@H](Cc1c[nH]c2ccccc12)C(=O)N[C@@H](CC(C)C)C(=O)N[C@H](C(=O)N[C@@H](CCCNC(=N)N)C(=O)NCC(=O)N[C@@H](CCCNC(=N)N)C(=O)N[C@@H](CCCCNC(=O)COCCOCCNC(=O)COCCOCCNC(=O)CC[C@H](NC(=O)CCCCCCCCCCCCCCCCC(=O)O)C(=O)O)C(=O)NCC(=O)NCC(=O)N[C@@H](CO)C(=O)N[C@@H](CCCCNC(=O)[C@H](CCCCNc1c(NCCCCCN(O)C(=O)CCC(=O)NCCCCCN(O)C(=O)CCC(=O)NCCCCCN(O)C(C)=O)c(=O)c1=O)Nc1c(NCCCCCN(O)C(=O)CCC(=O)NCCCCCN(O)C(=O)CCC(=O)NCCCCCN(O)C(C)=O)c(=O)c1=O)C(=O)O)C(C)C [zirconium-89 labelled] — tissue uptake (ex vivo gamma counting; male Sprague-Dawley rats, stomach; intravenous, 1 nmol, 24 h): 0.195 %ID/g
O=C1Nc2cc3[nH]nc(-c4ccncc4)c3cc2CN1Cc1ccccc1 — patients with grade ≥3 TEAE (measured: increased GGT; patients with advanced solid tumours; intravenous, dose not given, schedules 1 and 2): 15%
C[C@H]1CN(C(=O)CC#N)[C@]12CCN(c1ncnc3[nH]ccc13)C2 — NOAEL (rat male and female; oral, 3 months, repeated-dose toxicity study): 30 mg/kg
